{"data": "Measurements collected from several papers", "note": "A part holds a random share of what one study measured. Positions count from the first letter of the parent shown."}
{"data": "Sample 1", "target": "CCNA1, cyclin fold, Cln2 fusion (human)", "technique": "yeast growth competition, sequencing", "sample": "yeast", "setting": "weak parent motif", "relative to": "not given", "reading": "higher = stronger binding", "starting sequence": "ORC1 docking peptide (human); PRARKRLELGNLG; partner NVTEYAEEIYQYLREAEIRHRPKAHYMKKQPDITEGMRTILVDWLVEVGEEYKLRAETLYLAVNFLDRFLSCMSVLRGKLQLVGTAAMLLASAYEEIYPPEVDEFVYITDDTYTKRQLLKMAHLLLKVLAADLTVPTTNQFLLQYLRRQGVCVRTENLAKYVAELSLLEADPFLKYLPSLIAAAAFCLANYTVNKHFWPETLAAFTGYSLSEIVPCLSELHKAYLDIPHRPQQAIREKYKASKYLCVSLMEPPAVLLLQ"}
{"Variant": "PRARKRLELGNLY [G13Y]", "normalised enrichment score": 0.261}
{"Variant": "PRKRKRLELGNLG [A3K]", "normalised enrichment score": 0.0218}
{"Variant": "PRARQRLELGNLG [K5Q]", "normalised enrichment score": 0.338}
{"Variant": "PRARKRLELGQLG [N11Q]", "normalised enrichment score": 0.0386}
{"Variant": "PRARKRLELGLLG [N11L]", "normalised enrichment score": 0.377}
{"Variant": "NRARKRLELGNLG [P1N]", "normalised enrichment score": 0.534}
{"Variant": "PRARKRYELGNLG [L7Y]", "normalised enrichment score": 0.32}
{"Variant": "PRARVRLELGNLG [K5V]", "normalised enrichment score": 0.19}
{"Variant": "PRARKRLELGNWG [L12W]", "normalised enrichment score": 0.658}
{"Variant": "PRARERLELGNLG [K5E]", "normalised enrichment score": 0.22}
{"Variant": "PRARRRLEFGNLG [K5R L9F]", "normalised enrichment score": 1.46}
{"data": "Sample 2", "target": "Histone acetyltransferase KAT6A, winged helix 2, GST fusion (KAT6A, Homo sapiens, UniProt Q92794, residues 85-181)", "technique": "protein binding microarray", "molecule type": "double-stranded DNA, one strand shown", "sample": "in vitro", "tested at": "not given", "setting": "8-mer, flanks averaged, mean of 2 arrays, mostly near background", "relative to": "not given", "reading": "higher = stronger binding", "Target sequence (chain)": "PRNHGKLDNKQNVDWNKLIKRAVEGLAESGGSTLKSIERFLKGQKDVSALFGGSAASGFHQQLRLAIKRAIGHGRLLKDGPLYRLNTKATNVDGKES"}
{"Oligonucleotide": "TGGCTGAA", "E-score": 0.101}
{"Oligonucleotide": "GCGATAAC", "E-score": -0.0595}
{"Oligonucleotide": "ACCTACCG", "E-score": -0.109}
{"Oligonucleotide": "ACGTGGCG", "E-score": -0.0792}
{"Oligonucleotide": "ACACACAA", "E-score": -0.0146}
{"Oligonucleotide": "CCAGTTAA", "E-score": 0.0943}
{"Oligonucleotide": "AGGCTAAT", "E-score": 0.112}
{"Oligonucleotide": "GGGAGCTA", "E-score": -0.186}
{"Oligonucleotide": "CCCGAGTA", "E-score": -0.0191}
{"Oligonucleotide": "ACAATCCC", "E-score": 0.0468}
{"Oligonucleotide": "CACACAGG", "E-score": -0.0112}
{"data": "Sample 3", "target": "TATA-box-binding protein 1 (TBP1, Arabidopsis thaliana, UniProt P28147, residues 1-200, full length assumed)", "technique": "protein-binding microarray", "molecule type": "double-stranded DNA, one strand shown", "sample": "in vitro", "tested at": "not given", "setting": "k-mer, scored over probes, only values ≥0.25", "reading": "higher = stronger binding", "Residues (chain)": "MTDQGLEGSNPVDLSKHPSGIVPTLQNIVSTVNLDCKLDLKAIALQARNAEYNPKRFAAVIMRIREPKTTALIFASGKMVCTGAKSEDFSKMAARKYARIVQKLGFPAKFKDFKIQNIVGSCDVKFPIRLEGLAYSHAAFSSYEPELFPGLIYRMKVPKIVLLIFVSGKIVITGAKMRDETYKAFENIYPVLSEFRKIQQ"}
{"Oligonucleotide": "ATTAAAC", "E-score": 0.312}
{"Oligonucleotide": "ACTTAAA", "E-score": 0.404}
{"Oligonucleotide": "GAATTAA", "E-score": 0.277}
{"Oligonucleotide": "ACATATA", "E-score": 0.429}
{"Oligonucleotide": "CTCTATA", "E-score": 0.316}
{"Oligonucleotide": "CAATTTA", "E-score": 0.377}
{"Oligonucleotide": "AAATAGA", "E-score": 0.257}
{"Oligonucleotide": "TGATAAA", "E-score": 0.29}
{"data": "Mixed results"}
{"Molecule": "PhoQ, residues 284 288 289 292 302 303 AQGLTV", "target": "PhoP, residues 12 14 15 18 19 LWHVM (Escherichia coli, UniProt P23836)", "test": "Sort-seq, measured: YFP reporter", "test system": "E. coli", "conditions": "PhoQ-PhoP variant library, with: 10 µM Mg2+", "scale": "relative to: high Mg2+ state, higher = stronger signaling", "endpoint": "fold induction", "result": 18.1}
{"note": "For quick reference, copied from above (sample 3):"}
{"Oligonucleotide": "CAATTTA", "E-score": 0.377}
{"Oligonucleotide": "AAATAGA", "E-score": 0.257}
{"Oligonucleotide": "TGATAAA", "E-score": 0.29}
